Published values collected from several papers.
A part holds a random share of what one study measured. Several values in a cell are separate wells, animals, samples, runs or records.
UniProt O43353, sequence (whole entry, looked up): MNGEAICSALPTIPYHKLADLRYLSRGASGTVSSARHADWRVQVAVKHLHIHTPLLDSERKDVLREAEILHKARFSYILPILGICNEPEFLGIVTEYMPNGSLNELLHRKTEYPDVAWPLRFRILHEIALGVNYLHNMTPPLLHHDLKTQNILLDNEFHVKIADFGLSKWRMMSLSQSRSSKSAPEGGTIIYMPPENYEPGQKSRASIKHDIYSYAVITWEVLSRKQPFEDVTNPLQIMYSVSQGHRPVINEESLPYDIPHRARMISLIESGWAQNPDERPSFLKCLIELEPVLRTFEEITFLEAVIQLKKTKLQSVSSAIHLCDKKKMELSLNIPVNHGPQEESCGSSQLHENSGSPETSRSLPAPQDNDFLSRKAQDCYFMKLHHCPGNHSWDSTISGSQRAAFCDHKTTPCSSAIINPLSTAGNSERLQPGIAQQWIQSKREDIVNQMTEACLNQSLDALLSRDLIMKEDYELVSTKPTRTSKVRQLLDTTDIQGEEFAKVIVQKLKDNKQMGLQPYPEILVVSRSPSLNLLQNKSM
UniProt Q13873, sequence (whole entry, looked up): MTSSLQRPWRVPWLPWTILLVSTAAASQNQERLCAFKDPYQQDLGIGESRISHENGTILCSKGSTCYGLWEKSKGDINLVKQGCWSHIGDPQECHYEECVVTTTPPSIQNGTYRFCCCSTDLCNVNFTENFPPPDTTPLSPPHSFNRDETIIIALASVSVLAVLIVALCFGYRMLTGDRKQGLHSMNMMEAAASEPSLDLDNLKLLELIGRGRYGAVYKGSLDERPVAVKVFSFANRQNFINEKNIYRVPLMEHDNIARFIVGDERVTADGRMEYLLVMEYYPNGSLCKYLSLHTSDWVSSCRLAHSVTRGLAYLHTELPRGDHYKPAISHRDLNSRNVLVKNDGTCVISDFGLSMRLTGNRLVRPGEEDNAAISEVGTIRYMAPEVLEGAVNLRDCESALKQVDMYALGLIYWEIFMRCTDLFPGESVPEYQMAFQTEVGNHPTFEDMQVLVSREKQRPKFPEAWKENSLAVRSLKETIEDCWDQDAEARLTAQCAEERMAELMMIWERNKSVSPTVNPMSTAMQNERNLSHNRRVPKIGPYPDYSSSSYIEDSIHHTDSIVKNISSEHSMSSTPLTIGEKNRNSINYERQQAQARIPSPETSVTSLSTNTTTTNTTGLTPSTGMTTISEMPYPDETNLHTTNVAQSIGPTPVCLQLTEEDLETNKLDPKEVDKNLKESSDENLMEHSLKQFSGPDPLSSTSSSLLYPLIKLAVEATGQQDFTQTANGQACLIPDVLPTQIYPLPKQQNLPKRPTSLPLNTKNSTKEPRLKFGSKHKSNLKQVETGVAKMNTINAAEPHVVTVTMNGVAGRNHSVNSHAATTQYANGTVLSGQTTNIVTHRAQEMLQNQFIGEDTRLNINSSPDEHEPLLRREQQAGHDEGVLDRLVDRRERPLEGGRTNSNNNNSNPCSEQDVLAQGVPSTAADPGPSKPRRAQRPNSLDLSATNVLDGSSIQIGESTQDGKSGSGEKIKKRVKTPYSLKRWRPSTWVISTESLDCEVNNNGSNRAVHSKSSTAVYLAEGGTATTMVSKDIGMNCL
UniProt Q7L7X3, sequence (whole entry, looked up): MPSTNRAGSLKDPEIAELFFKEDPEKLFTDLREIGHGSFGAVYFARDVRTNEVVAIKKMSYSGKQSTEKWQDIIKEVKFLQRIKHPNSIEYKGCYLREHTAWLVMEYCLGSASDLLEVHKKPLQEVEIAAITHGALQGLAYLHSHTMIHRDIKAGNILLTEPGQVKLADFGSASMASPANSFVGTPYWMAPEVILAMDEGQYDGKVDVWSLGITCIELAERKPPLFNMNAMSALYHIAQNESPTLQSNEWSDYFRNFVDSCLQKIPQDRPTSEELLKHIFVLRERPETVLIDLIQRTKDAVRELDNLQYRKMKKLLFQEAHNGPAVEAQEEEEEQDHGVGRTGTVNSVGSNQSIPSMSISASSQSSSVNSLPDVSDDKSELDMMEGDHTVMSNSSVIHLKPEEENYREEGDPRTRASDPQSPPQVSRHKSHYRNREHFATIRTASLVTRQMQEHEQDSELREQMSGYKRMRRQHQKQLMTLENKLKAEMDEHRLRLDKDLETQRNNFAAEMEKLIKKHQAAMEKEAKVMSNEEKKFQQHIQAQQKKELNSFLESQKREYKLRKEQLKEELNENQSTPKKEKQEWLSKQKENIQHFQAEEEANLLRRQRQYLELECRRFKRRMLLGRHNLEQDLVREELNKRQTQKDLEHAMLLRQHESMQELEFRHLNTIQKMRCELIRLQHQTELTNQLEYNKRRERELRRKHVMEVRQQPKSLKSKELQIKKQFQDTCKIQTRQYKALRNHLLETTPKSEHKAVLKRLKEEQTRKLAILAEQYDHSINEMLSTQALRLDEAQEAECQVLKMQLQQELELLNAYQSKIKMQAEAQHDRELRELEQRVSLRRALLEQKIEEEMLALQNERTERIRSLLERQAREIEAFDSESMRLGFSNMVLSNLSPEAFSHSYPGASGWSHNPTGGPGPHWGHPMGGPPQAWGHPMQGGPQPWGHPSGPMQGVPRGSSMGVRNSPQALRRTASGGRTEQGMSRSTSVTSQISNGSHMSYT
UniProt Q9NRP7, sequence (whole entry, looked up): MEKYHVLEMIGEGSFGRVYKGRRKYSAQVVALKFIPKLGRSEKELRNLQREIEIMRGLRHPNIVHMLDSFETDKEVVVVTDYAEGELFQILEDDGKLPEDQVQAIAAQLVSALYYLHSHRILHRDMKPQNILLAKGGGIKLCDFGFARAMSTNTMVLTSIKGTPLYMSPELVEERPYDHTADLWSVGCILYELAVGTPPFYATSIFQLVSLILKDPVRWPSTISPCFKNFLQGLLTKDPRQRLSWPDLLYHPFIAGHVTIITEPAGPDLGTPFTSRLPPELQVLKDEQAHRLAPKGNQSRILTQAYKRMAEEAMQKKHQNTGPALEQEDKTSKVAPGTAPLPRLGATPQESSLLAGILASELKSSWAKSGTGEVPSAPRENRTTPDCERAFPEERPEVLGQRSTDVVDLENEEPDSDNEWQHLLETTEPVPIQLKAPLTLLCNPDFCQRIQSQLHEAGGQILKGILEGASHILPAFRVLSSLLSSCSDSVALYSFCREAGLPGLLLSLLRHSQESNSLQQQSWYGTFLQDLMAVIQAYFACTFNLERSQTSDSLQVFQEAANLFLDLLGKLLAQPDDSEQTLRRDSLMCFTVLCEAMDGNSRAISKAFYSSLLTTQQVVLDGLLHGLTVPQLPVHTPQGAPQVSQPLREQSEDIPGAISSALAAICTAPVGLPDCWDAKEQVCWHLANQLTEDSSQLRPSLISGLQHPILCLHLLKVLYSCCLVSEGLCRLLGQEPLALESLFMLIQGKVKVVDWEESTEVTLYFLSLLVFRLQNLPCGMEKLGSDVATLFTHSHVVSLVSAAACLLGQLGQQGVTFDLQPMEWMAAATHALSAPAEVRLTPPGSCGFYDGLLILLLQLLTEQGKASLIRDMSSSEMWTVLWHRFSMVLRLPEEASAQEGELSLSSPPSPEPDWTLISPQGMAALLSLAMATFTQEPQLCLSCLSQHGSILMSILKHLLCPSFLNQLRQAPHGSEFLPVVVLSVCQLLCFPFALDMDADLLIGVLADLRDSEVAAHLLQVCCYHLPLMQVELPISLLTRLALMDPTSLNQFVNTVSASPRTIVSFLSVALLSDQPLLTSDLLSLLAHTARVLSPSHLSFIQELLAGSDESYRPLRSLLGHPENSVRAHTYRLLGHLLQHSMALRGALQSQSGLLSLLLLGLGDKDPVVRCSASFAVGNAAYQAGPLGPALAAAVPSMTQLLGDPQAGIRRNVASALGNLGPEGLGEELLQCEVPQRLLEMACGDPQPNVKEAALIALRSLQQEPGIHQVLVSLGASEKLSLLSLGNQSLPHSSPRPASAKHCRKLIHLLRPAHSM

Sample 1
Target: Diamine acetyltransferase 1 (Homo sapiens, UniProt P21673)
Mode: inhibitor
Concentration: 10 µM
Baseline: control
Measurement: remaining activity
Target sequence (P21673 1-171): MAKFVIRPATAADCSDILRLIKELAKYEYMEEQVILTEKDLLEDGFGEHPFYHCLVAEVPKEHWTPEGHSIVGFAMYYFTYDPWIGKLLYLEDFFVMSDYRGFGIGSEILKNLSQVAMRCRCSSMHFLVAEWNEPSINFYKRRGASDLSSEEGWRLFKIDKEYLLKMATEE
COc1ccc(C[C@@H]2c3cc(Oc4cc(C[C@@H]5c6cc(OC)c(OC)cc6CCN5C)ccc4O)c(OC)cc3CCN2C)cc1: 99.9%
COc1cc(CCC(O)CC(O)CCc2ccc(O)c(OC)c2)ccc1O (centres unmarked): 103%
COc1cc(C[C@H]2CO[C@H](c3ccc(O)c(OC)c3)[C@H]2CO)ccc1O: 72.1%
O=C(/C=C/c1ccc(O)c(O)c1)O[C@@H]1C[C@](O)(C(=O)O)C[C@@H](OC(=O)/C=C/c2ccc(O)c(O)c2)[C@H]1O: 101%

Sample 2
Target: Calcium/calmodulin-dependent protein kinase type II subunit alpha (CAMK2A, Homo sapiens, UniProt Q9UQM7)
UniProt Q9UQM7, sequence (whole entry, looked up): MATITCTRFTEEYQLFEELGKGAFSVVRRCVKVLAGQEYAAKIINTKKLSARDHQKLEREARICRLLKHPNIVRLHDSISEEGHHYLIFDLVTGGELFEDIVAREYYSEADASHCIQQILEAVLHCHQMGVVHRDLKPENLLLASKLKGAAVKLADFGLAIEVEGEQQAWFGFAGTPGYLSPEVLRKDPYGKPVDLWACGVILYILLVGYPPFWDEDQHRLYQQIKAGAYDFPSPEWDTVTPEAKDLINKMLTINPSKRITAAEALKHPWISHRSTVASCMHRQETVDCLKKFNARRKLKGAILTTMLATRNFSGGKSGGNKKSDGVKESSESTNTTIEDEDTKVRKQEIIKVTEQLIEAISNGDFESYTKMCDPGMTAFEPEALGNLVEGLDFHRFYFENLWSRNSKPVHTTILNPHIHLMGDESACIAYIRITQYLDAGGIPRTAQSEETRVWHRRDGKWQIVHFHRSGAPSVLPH
Effect on: enzyme activity
Mode: inhibitor
Concentration: 10 µM
Measurement: inhibition
NCCS(=O)O: 21%
COc1cc2ccc(=O)oc2c(OC)c1OC: 8%
CC(C)=CCC[C@@](O)(CO[C@@H]1O[C@H](CO)[C@@H](O)[C@H](O)[C@H]1O)[C@H]1CC[C@]2(C)[C@@H]1CC[C@@H]1[C@@]3(C=O)CC[C@H](O[C@@H]4OC[C@H](O)[C@H](O[C@@H]5OC[C@@H](O)[C@H](O)[C@H]5O)[C@H]4O[C@@H]4O[C@@H](C)[C@H](O)[C@@H](O)[C@H]4O)C(C)(C)[C@@H]3CC[C@]12C: 28%
COC(=O)Nc1nc2cc(C(=O)c3ccc(F)cc3)ccc2[nH]1: -8%
C[N+](C)(C)[C@@H](Cc1c[nH]c2ccccc12)C(=O)[O-]: 17%

Sample 3
Target: Mitogen-activated protein kinase kinase kinase 7 (MAP3K7, Homo sapiens, UniProt O43318)
Effect on: enzyme activity
Mode: inhibitor
Concentration: 0.5 µM
Baseline: control
Measurement: remaining activity
Residues (O43318 1-606): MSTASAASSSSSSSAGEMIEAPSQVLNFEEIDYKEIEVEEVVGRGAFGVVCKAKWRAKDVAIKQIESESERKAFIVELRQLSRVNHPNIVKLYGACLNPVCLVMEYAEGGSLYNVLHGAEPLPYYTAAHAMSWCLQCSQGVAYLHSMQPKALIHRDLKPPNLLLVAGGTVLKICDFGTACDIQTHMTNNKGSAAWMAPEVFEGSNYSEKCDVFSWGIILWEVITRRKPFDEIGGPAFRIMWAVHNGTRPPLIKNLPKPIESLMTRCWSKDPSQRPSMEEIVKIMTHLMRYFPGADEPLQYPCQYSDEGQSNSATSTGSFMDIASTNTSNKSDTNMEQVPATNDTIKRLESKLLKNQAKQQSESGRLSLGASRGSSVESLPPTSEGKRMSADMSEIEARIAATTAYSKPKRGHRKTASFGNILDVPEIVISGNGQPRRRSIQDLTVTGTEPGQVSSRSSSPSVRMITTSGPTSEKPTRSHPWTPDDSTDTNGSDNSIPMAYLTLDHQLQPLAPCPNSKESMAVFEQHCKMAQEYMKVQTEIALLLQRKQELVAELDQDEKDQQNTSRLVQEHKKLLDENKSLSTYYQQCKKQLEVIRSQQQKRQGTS
C#Cc1cccc(Nc2ncnc3cc(OCCOC)c(OCCOC)cc23)c1: 88.8%
O=C(Nc1cccc(Nc2cc(Nc3cccc(C(F)(F)F)c3)ncn2)c1)C1CC1: 99.3%
NCCNc1ncc(C(N)=O)c(Nc2cccc(C(F)(F)F)c2)n1: 71.2%
Nc1[nH]nc2nc3ccccc3nc12: 100%
CO[C@H]1C[C@@H]2CC[C@@H](C)[C@@](O)(O2)C(=O)C(=O)N2CCCC[C@H]2C(=O)O[C@H]([C@H](C)C[C@@H]2CC[C@@H](O)[C@H](OC)C2)CC(=O)[C@H](C)/C=C(\C)[C@@H](O)[C@@H](OC)C(=O)[C@H](C)C[C@H](C)/C=C/C=C/C=C/1C: 95.2%
Cc1ccc(NC(=O)c2ccc(CN3CCN(C)CC3)cc2)cc1Nc1nc(-c2cccnc2)cs1: 98.6%
Cc1cccc(-c2[nH]c(C(C)(C)C)nc2-c2ccc3c(c2)OCO3)n1: 96.3%
COc1ccc(CNC(=O)Nc2ncc([N+](=O)[O-])s2)cc1: 99.3%
CCOC(=O)c1c(C)[nH]c(/C=C2\C(=O)Nc3ccccc32)c1C: 85.8%
Oc1ccc(-c2nc(-c3ccncc3)c(-c3ccc(F)cc3)[nH]2)cc1: 97.7%
Nc1ncnc2n[nH]c(Nc3ccc(F)cc3)c12: 100%
COc1cc2ncnc(Nc3ccc(Oc4ccccc4)cc3)c2cc1OC: 102%
O=C1NC(=O)C(c2cn(CCCn3ccnc3)c3ccccc23)=C1Nc1ccccc1: 93.8%
Cc1nc(-c2ccccc2)c(-c2ccncc2)o1: 93.6%
COc1cc2nccc(Oc3ccc(NC(=S)NC(=O)c4ccccc4C)cc3)c2cc1OC: 95.6%

Sample 4
SMILES: CS(=O)(=O)NCC[C@H](NC(=O)c1cncc2c1cnn2-c1ccc(F)cc1)c1ccnc(S(C)(=O)=O)c1
Effect on: cell-free assay
Method: competition with immobilised ligand
Concentration: 1 µM
Measurement: remaining binding
STK36 (Homo sapiens, UniProt Q9NRP7): 100%
MET (Homo sapiens, UniProt P08581, M1250T): 88%
PRKD3 (Homo sapiens, UniProt O94806): 92%
PIK3CA (Homo sapiens, UniProt P42336, E542K): 66%

Sample 5
SMILES: CC(C)S(=O)(=O)c1ccc2nccc(Nc3ccc4sc(C5CCCC5)nc4c3)c2c1.Cl
Effect on: kinase activity
Mode: inhibitor
Concentration: 1 µM
Measurement: remaining activity
PIK3C2A (Homo sapiens, UniProt O00443): 99%
RIPK2 (Homo sapiens, UniProt O43353): 1% and 4%
TAOK1 (Homo sapiens, UniProt Q7L7X3): 96%
BMPR2 (Homo sapiens, UniProt Q13873): 105%

Some of these lines once more (sample 3):
C#Cc1cccc(Nc2ncnc3cc(OCCOC)c(OCCOC)cc23)c1: 88.8%
Nc1[nH]nc2nc3ccccc3nc12: 100%
Cc1nc(-c2ccccc2)c(-c2ccncc2)o1: 93.6%
Nc1ncnc2n[nH]c(Nc3ccc(F)cc3)c12: 100%
